# Measured values pooled from the literature.
# Every numbered part comes from another study and shows a few of its results, in no order. Several values in a cell are separate wells, animals, samples, runs or records.

# Study 1 — read-out: binding; technique: radioligand binding; concentration: 10 µM
# Target: Muscarinic acetylcholine receptor M1 (CHRM1, Homo sapiens, UniProt P11229)
# Sequence of UniProt P11229 (whole entry, looked up): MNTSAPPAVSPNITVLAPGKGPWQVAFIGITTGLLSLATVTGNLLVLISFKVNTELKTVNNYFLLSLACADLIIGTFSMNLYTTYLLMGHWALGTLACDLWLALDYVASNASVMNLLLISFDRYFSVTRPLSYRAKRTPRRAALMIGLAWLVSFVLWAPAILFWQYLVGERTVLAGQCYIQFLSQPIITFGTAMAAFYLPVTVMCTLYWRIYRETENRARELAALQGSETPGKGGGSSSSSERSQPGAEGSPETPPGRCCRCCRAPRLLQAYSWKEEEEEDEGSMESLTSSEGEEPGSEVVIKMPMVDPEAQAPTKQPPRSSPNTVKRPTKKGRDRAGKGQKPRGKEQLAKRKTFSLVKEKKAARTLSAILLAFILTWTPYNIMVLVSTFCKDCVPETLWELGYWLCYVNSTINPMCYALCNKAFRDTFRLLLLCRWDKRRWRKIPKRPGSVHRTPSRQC
SMILES,inhibition [%]
CNC(=O)Nc1ccc2c(c1)[C@]1(CC2)OC(=O)N(CC(=O)N(Cc2ccc(F)cc2)[C@@H](C)C(F)(F)F)C1=O,5.42
Cc1cc(C)c(-n2ccn3nc(-c4cccnc4)cc23)cc1NC(=O)c1cc(C#N)cc(S(F)(F)(F)(F)F)c1,24.8
CCOC(=O)c1cc2cc(-c3cc(C(=O)NCc4ccc(C(=O)O)cc4)nn3C)ccc2[nH]1,-17.4
O=C([C@H]1C[C@H](O)CN1c1ccc(Cl)cc1)N1CC2COCC(C1)N2Cc1ccc(Cl)cc1,-3.85
Cc1c(NC(=O)c2cc(C(N)=O)nc3cc(F)ccc23)c(C(F)(F)F)nn1Cc1ccc(C(C)(C)C)cc1,37.2
CS(=O)(=O)NCC[C@H](NC(=O)c1cncc2c1cnn2-c1ccc(F)cc1)c1ccnc(S(C)(=O)=O)c1,-17
O=C(O)c1cc(-c2ccc(C3CCNCC3)cc2)c2ccc(-c3ccc(C(F)(F)F)cc3)cc2c1,4.16
CN1CCN(C(=O)C(C)(C)c2ccc(C(=O)Nc3cn4cc(-c5ccncc5)ccc4n3)cc2)CC1,-10.8
C[C@H](NC(=O)c1cnc2n1[C@](C)(Cc1ccc(C#N)cc1)C(=O)N2c1cc(Cl)c(F)c(Cl)c1)C(=O)NC1(c2ccccn2)CC1,-11.7
CC1=C(C#N)C(c2ccc3c(c2)c(NC(=O)c2ccccc2C)nn3C)C(C#N)=C(C)N1,-1.37
Cc1nc(C2CCN(C(=O)c3ccc(OC(F)(F)F)cc3N)CC2)c2ncc(N3CCN(C)CC3)cc2n1,2.76
CCOCCn1cc(C(=O)Nc2ccc(-n3nc(-c4cccnc4)cc3C(F)(F)F)cn2)ccc1=O,-12
Cc1nc(N2CC[C@@H](O)C2)ncc1-c1cc(C(F)(F)F)cc2[nH]ncc12,1.12
O=C(Nc1ccc(-n2nc(-c3cccnc3)cc2C(F)(F)F)cn1)c1ccc(-c2ccccc2)c(F)c1,25.5
Nc1c(C(=O)NCc2ccc(C(=O)NCCCC3CCCCC3)cc2)cnn1-c1ccccc1,31.1
CCCOc1ccc([C@H]2[C@H](C(=O)O)[C@@H](c3ccc4c(c3)OCO4)CN2CC(=O)Nc2c(CC)cccc2CC)cc1,-16.3
CN([C@@H]1CCc2c(CC(=O)O)c3cc(S(C)(=O)=O)ccc3n2C1)S(=O)(=O)c1ccc(F)cc1,-1.48
Cc1c(N2CCCC2)nc2ccc(Br)cc2c1C(=O)NC[C@H](CCC(=O)O)c1ccccc1Cl,14.3
CNC(=O)c1cc(C(=O)NC2CC2)cn(Cc2ccccc2)c1=O,-15.7
Cc1c[nH]c2nccc(Oc3c(F)cc(Nc4cc(Cl)nc(N)n4)cc3F)c12,-0.22
C[C@@]1(Cc2ccc(C#N)cc2)C(=O)N(c2cc(Cl)cc(Cl)c2)c2ncc(C(=O)NC3(c4nc(C5CCC5)no4)CC3)n21,-8.37
O=C(Nc1cnc(Oc2ccc(F)cc2)nc1)N1CCc2ncccc2[C@@H]1c1ccc(F)cc1,7.56
O=C(Nc1cccnn1)N1CCC(=Cc2cccc(Oc3ccc(C(F)(F)F)cn3)c2)CC1,29.5
O=C(Nc1cccnn1)N1CC(CC=Cc2cncc(Oc3ccc(C(F)(F)F)cn3)n2)C1,-6.78
C[C@@H]1CN(c2cc(-c3nn(C)c4ccc(OC5(C)CC5)cc34)ncn2)C[C@H](C)O1,-1.02

# Study 2 — organism: Sarcocystis neurona; read-out: parasite growth; concentration: 10 µM; time: 96 h; setting: first screen
SMILES,inhibition
CC(NC(C)(C)C)C(=O)c1cccc(Cl)c1 (stereo not shown),-23.2%
NC(=O)C[S+]([O-])C(c1ccccc1)c1ccccc1 (stereo not shown),-14.9%
COc1ccc(C(CN(C)C)C2(O)CCCCC2)cc1 (stereo not shown),11.4%
C=C1C[C@@H]2[C@H](CC[C@]3(C)C(=O)CC[C@@H]23)[C@@]2(C)C=CC(=O)C=C12,10.8%
O=C1CN=C(c2ccccc2)c2cc([N+](=O)[O-])ccc2N1,7.4%
Cc1nnc2n1-c1ccc(Cl)cc1C(c1ccccc1)=NC2,4.4%
C[C@]12C/C(=C/O)C(=O)C[C@@H]1CC[C@@H]1[C@@H]2CC[C@@]2(C)[C@H]1CC[C@]2(C)O,10.6%
CNCC(O)c1ccc(O)cc1 (stereo not shown),-13.9%
CN1C(=O)CN=C(c2ccccc2)c2cc([N+](=O)[O-])ccc21,2%
Cc1ncc2n1-c1ccc(Cl)cc1C(c1ccccc1F)=NC2,-13.2%

# Study 3 — read-out: enzyme activity; action: inhibitor; concentration: 10 µM
# Target: Calcium/calmodulin-dependent protein kinase type II subunit alpha (CAMK2A, Homo sapiens, UniProt Q9UQM7)
# Sequence of UniProt Q9UQM7 (whole entry, looked up): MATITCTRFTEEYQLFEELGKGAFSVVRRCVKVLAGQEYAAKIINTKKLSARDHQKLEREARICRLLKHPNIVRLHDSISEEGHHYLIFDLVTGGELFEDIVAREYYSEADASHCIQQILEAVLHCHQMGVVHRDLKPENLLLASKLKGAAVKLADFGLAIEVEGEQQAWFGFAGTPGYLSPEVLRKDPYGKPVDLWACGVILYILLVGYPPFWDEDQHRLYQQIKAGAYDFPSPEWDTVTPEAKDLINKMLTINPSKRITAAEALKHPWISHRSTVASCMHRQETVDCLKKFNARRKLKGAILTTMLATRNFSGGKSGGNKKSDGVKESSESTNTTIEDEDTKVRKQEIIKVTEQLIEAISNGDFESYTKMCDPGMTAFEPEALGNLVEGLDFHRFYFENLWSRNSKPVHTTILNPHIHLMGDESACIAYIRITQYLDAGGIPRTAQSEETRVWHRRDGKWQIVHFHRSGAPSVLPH
Structure (SMILES),inhibition [%]
CCC1=N[C@H]2C[C@@]3(C(=O)N(OC)c4ccccc43)[C@H]3C[C@@H]1[C@@H]2CO3,-9
COC1c2c(ccc3c2OCO3)-c2ccc3cc4c(cc3c2N1C)OCO4 (stereo not shown),19
C=C1[C@H]2C[C@@]3(C4C[C@@H]5[C@@]6(C)CC[C@H](O)[C@@]5(C4N(CC)C6)[C@@H]3C[C@H]2O)[C@@H]1O,-15
C[C@H]1CCCC(=O)CCC/C=C/c2cc(O)cc(O)c2C(=O)O1,-39
c1cncc([C@@H]2CCCCN2)c1,5
COc1cc2c(cc1OC)-c1c(OC)c(OC)cc3c1[C@H](C2)N(C)CC3,-16

# Study 4 — cell line: mouse MPNST tumor cells; technique: high-content nuclear imaging; item: cell number; concentration: 10 µM; time: 12 h; setting: mean of 2 replicates; reference: plate mean; reading: higher = more cells
SMILES,nuclei count
CCCC(C)C1(CC)C(=O)NC(=O)NC1=O (stereo not shown),-0.174 z-score
OCC[N+]12CN3CN(CN(C3)C1)C2,2.05 z-score
CCCC[N+]1(C)C2CC(OC(=O)C(CO)c3ccccc3)CC1C1OC12 (stereo not shown),0.859 z-score
CCN1C[C@]2(COC(=O)c3ccccc3N3C(=O)C[C@H](C)C3=O)CC[C@H](OC)[C@@]34[C@@H]5C[C@H]6[C@H](OC)[C@@H]5[C@](O)(C[C@@H]6OC)[C@](O)([C@@H](OC)[C@H]23)[C@@H]14,0.495 z-score
CC[C@@]1(O)C(=O)OCc2c1cc1n(c2=O)Cc2cc3ccccc3nc2-1,-3.38 z-score
c1ccc2c(c1)Nc1ccccc1S2,0.474 z-score

# Study 5 — read-out: RNA clamping; technique: fluorescence polarization; concentration: concentration not given; with: FAM-labelled poly r(AG)8 RNA
# Target: Eukaryotic initiation factor 4A-III (Homo sapiens, UniProt P38919)
# Sequence of UniProt P38919 (whole entry, looked up): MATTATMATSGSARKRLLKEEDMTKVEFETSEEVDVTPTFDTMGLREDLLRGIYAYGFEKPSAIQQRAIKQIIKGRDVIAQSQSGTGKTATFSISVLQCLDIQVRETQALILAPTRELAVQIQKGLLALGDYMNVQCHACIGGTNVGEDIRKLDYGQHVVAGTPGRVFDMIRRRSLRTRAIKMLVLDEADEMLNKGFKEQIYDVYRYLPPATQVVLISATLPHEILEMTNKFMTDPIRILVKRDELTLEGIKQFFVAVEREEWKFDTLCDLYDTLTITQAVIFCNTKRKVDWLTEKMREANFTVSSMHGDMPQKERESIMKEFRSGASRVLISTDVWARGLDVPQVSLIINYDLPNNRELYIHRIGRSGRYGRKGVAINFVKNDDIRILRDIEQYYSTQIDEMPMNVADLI
Structure (SMILES),fluorescence polarization change
COc1ccc([C@@]23Oc4cc(OC)cc(OC)c4[C@]2(O)c2nc(-c4ccccc4)[nH]c(=O)c2[C@@H]3c2ccccc2)cc1,3.1 mP
COc1ccc([C@]23Oc4cc(OC)cc(OC)c4[C@](O)([C@H](c4ccccc4)[C@H]2C(=O)NCCCCNC(=O)c2ccccc2)[C@H]3O)cc1,-4.8 mP
COc1ccc([C@@]23Oc4cc(OC)cc(OC)c4[C@@]24NC(C)=N[C@@]4(O)[C@H](C(=O)N(C)OC)[C@H]3c2ccccc2)cc1,80.1 mP
COc1ccc([C@@]23Oc4cc(OC)cc(OC)c4[C@]2(O)c2nc4n(c(=O)c2[C@H]3c2ccccc2)CCCC4)cc1,22.3 mP
COc1ccc([C@@]23Oc4cc(OC)cc(OC)c4[C@]2(O)[C@@H](O)C[C@H]3c2ccccc2)cc1,12.8 mP
COC(=O)[C@H]1[C@@H](O)[C@@]2(O)c3c(OC)cc(OC)cc3O[C@@]2(c2ccc(OC)cc2)[C@@H]1c1ccccc1,24.2 mP and 50 mP
COC(=O)[C@@H]1[C@@H](c2ccccc2)[C@]2(c3ccc(Br)cc3)Oc3cc(OC)cc(OC)c3[C@@]1(O)C2(O)O,-1.9 mP
COC(=O)[C@@H]1[C@@H](c2ccccc2)[C@]2(c3ccccc3)Oc3ccccc3[C@@]1(O)[C@H]2O,-3.3 mP
COc1ccc([C@@]23Oc4cc(OC)cc(OC)c4[C@]2(O)c2nc(-c4ccc(C(F)(F)F)cc4)[nH]c(=O)c2[C@H]3c2ccccc2)cc1,7.3 mP and 9.2 mP
COC(=O)[C@@H]1[C@@H](c2ccccc2)[C@]2(c3ccc(OC)cc3)Oc3cc(OC)cc(OC)c3[C@@]23OC(c2ccc(OC)cc2)=N[C@@]13O,-0.7 mP
COC(=O)[C@@H]1[C@@H](c2ccccc2)[C@]2(c3ccc(OC)cc3)Oc3cc(OC)cc(OC)c3[C@@]23OC(c2ccc(Cl)cc2)=N[C@@]13O,4.6 mP

# Some of these lines once more (study 1):
SMILES,inhibition [%]
Cc1nc(C2CCN(C(=O)c3ccc(OC(F)(F)F)cc3N)CC2)c2ncc(N3CCN(C)CC3)cc2n1,2.76
Cc1cc(C)c(-n2ccn3nc(-c4cccnc4)cc23)cc1NC(=O)c1cc(C#N)cc(S(F)(F)(F)(F)F)c1,24.8
CCCOc1ccc([C@H]2[C@H](C(=O)O)[C@@H](c3ccc4c(c3)OCO4)CN2CC(=O)Nc2c(CC)cccc2CC)cc1,-16.3
Cc1nc(N2CC[C@@H](O)C2)ncc1-c1cc(C(F)(F)F)cc2[nH]ncc12,1.12
C[C@@]1(Cc2ccc(C#N)cc2)C(=O)N(c2cc(Cl)cc(Cl)c2)c2ncc(C(=O)NC3(c4nc(C5CCC5)no4)CC3)n21,-8.37
O=C(Nc1ccc(-n2nc(-c3cccnc3)cc2C(F)(F)F)cn1)c1ccc(-c2ccccc2)c(F)c1,25.5
CN([C@@H]1CCc2c(CC(=O)O)c3cc(S(C)(=O)=O)ccc3n2C1)S(=O)(=O)c1ccc(F)cc1,-1.48
CC1=C(C#N)C(c2ccc3c(c2)c(NC(=O)c2ccccc2C)nn3C)C(C#N)=C(C)N1,-1.37
O=C(Nc1cccnn1)N1CC(CC=Cc2cncc(Oc3ccc(C(F)(F)F)cn3)n2)C1,-6.78
Nc1c(C(=O)NCc2ccc(C(=O)NCCCC3CCCCC3)cc2)cnn1-c1ccccc1,31.1
